Measurements pooled from the literature.
Each line is one published result; not all experiments were run side by side.
Chain of UniProt Q07912 (whole entry, looked up): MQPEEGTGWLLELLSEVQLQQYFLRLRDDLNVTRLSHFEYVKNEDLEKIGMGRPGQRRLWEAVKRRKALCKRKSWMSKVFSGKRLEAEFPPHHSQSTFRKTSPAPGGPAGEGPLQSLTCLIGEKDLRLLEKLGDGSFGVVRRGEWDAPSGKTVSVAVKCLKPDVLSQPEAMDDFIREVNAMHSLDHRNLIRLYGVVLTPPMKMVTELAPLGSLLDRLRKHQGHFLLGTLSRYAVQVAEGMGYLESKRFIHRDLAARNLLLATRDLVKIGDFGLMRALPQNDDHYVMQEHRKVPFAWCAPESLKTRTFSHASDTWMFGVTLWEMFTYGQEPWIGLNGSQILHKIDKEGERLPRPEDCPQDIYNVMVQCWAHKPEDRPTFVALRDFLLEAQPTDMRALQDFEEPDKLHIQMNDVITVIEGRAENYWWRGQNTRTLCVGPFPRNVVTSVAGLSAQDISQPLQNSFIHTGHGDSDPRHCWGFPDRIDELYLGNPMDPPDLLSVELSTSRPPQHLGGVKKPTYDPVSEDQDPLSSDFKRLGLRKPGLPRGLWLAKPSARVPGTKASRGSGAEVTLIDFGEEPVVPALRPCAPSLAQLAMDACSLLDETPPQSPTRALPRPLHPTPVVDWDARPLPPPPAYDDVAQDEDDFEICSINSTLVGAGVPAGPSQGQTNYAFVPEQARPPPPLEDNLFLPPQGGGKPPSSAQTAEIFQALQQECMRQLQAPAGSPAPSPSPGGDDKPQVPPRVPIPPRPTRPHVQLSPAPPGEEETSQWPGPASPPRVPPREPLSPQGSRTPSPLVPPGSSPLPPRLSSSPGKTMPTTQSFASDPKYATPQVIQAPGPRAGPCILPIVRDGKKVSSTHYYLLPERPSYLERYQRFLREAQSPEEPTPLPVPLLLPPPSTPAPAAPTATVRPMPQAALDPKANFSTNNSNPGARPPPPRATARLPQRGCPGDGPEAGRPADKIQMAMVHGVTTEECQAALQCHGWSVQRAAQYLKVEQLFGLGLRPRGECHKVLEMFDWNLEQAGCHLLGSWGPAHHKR
Chain of UniProt P53671 (whole entry, looked up): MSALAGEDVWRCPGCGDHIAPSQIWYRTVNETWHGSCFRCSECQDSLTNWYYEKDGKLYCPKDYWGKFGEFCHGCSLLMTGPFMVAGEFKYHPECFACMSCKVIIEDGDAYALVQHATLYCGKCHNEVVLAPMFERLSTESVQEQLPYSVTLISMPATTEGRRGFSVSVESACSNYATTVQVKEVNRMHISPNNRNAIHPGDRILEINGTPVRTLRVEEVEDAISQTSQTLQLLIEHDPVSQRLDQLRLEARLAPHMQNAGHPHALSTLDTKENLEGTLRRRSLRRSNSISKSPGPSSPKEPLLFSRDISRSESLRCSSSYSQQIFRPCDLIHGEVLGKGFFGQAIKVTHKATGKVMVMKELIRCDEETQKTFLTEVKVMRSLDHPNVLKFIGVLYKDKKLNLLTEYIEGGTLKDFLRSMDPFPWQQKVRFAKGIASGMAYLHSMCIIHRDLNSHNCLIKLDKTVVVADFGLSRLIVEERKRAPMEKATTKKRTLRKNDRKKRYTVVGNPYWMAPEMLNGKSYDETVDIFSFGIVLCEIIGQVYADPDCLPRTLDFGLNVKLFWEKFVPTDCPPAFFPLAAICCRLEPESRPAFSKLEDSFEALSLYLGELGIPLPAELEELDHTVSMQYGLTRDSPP
Chain of UniProt P31749 (whole entry, looked up): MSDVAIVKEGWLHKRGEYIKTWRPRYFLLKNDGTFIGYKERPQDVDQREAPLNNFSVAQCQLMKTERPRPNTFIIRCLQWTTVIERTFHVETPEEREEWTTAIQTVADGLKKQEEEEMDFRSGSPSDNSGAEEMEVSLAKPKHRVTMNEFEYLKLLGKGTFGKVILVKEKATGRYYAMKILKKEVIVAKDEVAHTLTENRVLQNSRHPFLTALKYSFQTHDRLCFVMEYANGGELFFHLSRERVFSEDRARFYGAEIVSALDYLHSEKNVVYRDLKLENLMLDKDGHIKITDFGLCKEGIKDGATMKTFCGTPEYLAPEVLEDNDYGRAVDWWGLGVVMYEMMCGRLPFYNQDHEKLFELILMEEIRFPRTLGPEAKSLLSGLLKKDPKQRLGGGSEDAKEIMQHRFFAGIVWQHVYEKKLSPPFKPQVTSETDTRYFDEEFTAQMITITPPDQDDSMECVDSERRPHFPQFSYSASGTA

SMILES	tested on	test	test system	setting	measurement	result
COc1cccc(OC)c1-c1cc(C(=O)NC2(C(=O)O)C3CC4CC(C3)CC2C4)nn1-c1ccc(C(=O)N(C)CCCN(C)CCCN(C)C(=O)CN2CCN(CC(=O)[O-])CCN(CC(=O)[O-])CCN(CC(=O)[O-])CC2)cc1C(C)C.[177Lu+3] (stereo not drawn)	HT-29 tumour model	–	host not given, blood	7 days, tumour-bearing	tracer uptake	0.7 %ID/g
COc1cc(F)c(-c2c(Cl)nc(-c3cccs3)nc2N[C@H](C)C(C)C)c(F)c1	HEK293	cell growth or viability, resazurin	–	48 h	CC50	34.3 µM
COc1cc(/C=C/C(=O)C(=Cc2ccc(O)cc2)C(=O)/C=C/c2ccc(O)c(OC)c2)ccc1O	WRL68	cell growth or viability, MTT	–	1.55 µg/mL, 48 h	viability	109%
COc1cccc(OC)c1-c1cc(C(=O)NC2(C(=O)O)C3CC4CC(C3)CC2C4)nn1-c1ccc(C(=O)N(C)CCCN(C)CCCN(C)C(=O)CN2CCN(CC(=O)[O-])CCN(CC(=O)[O-])CCN(CC(=O)[O-])CC2)cc1C(C)C.[177Lu+3] (stereo not drawn)	HT-29 tumour model	–	host not given, bone	intravenous, 4 h, tumour-bearing	tracer uptake	0.8 %ID/g
O=C(c1ccc(F)cc1)C1CCN(CCn2c(=O)[nH]c3ccccc3c2=O)CC1	–	metabolic stability, mass spectrometry	mouse, liver microsomes	5 min	compound remaining	70.1%
COc1cc(-c2cncc3c2CN(C)Cc2cc(N4CCNCC4)ccc2-3)cc(OC)c1OC	LIM domain kinase 2 (LIMK2, Homo sapiens, UniProt P53671)	enzyme activity, inhibitor	–	1 µM	remaining activity	109%
CC1(C)OC[C@@]2(C)[C@H]3CC[C@@H]4CN(Cc5ccc(I)cc5)[C@@H](C5=CCOC5=O)C[C@H]4[C@]3(C)CC[C@H]2O1	MRC5	cell growth or viability, ATP luminescence	–	25 µM, 72 h	cell death	2.4%
Nc1ccn([C@@H]2O[C@H](CO)[C@@H](O)C2(F)F)c(=O)n1	MDA-MB-231	cell growth or viability, MTT	–	2.5 µg/mL, 48 h	viability	61.9%
CC(C)[C@@H](C)Nc1nc(-c2cccs2)nc(Cl)c1-c1ccccc1F	HEK293	cell growth or viability, resazurin	–	48 h	CC50	> 50 µM
COc1cccc(NC(=O)Nc2ccc(Oc3nc4ccccc4n4cnnc34)cc2)c1	WISH	cell growth or viability, MTT	–	50 µM, 24 h	viability	52.5%
C[C@]1(CO)[C@H]2CC[C@@H]3CN(Cc4ccc(F)c(Cl)c4)[C@@H](C4=CCOC4=O)C[C@H]3[C@]2(C)CC[C@H]1O	MRC5	cell growth or viability, ATP luminescence	–	25 µM, 72 h	cell death	9.9%
CC1(F)CN(C(=O)Cn2c(=O)c(C(=O)NCc3ccc(Cl)cc3)cc3nc(N4CCOC4=O)cnc32)C1	MRC5	cell growth or viability	–	–	CC50	32.6 µM
CC1(C)OC[C@@]2(C)[C@H]3CC[C@@H]4CN(Cc5ccc(F)c(Cl)c5)[C@@H](C5=CCOC5=O)C[C@H]4[C@]3(C)CC[C@H]2O1	MRC5	cell growth or viability, ATP luminescence	–	25 µM, 72 h	cell death	30.9%
CNC(=O)c1cc(Oc2ccc(NC(=O)Nc3ccc(Cl)c(C(F)(F)F)c3)cc2)ccn1	WISH	cell growth or viability, MTT	–	12.5 µM, 24 h	viability	40.2%
CNc1ncc2c(/C=C/C(=O)N3CCC(OC)CC3)nn(Cc3cccc(C(F)(F)F)c3)c2n1	Activated CDC42 kinase 1 (TNK2, Homo sapiens, UniProt Q07912)	enzyme activity, inhibitor, radiometric	–	1 µM	remaining activity	94%
C=CC(=O)N1CCC(COCC(=O)N2CCN(c3nc(-c4cnc(N)nc4C(F)F)nc(N4CCOC[C@@H]4C)n3)CC2)CC1	RAC-alpha serine/threonine-protein kinase (AKT1, Homo sapiens, UniProt P31749)	binding, competition with immobilised ligand	–	1 µM	remaining binding	100%
CC(C)(C)CNc1nc(-c2cccs2)nc(Cl)c1-c1c(F)cc([N+](=O)[O-])cc1F	HEK293	cell growth or viability, resazurin	–	48 h	CC50	> 50 µM
CC1(C)OC[C@@]2(C)[C@H]3CC[C@@H]4CN(Cc5ccc(O)cc5)[C@@H](C5=CCOC5=O)C[C@H]4[C@]3(C)CC[C@H]2O1	MRC5	cell growth or viability, ATP luminescence	–	25 µM, 72 h	cell death	18.1%

Some of these lines once more:
SMILES	tested on	test	test system	setting	measurement	result
Nc1ccn([C@@H]2O[C@H](CO)[C@@H](O)C2(F)F)c(=O)n1	MDA-MB-231	cell growth or viability, MTT	–	2.5 µg/mL, 48 h	viability	61.9%
COc1cccc(OC)c1-c1cc(C(=O)NC2(C(=O)O)C3CC4CC(C3)CC2C4)nn1-c1ccc(C(=O)N(C)CCCN(C)CCCN(C)C(=O)CN2CCN(CC(=O)[O-])CCN(CC(=O)[O-])CCN(CC(=O)[O-])CC2)cc1C(C)C.[177Lu+3] (stereo not drawn)	HT-29 tumour model	–	host not given, bone	intravenous, 4 h, tumour-bearing	tracer uptake	0.8 %ID/g
